Measurements pooled from the literature.
Parts stem from different laboratories: compare values within a part only. “And” joins repeats or separate records; there may be more than shown.
Chain of UniProt Q15349 (whole entry, looked up): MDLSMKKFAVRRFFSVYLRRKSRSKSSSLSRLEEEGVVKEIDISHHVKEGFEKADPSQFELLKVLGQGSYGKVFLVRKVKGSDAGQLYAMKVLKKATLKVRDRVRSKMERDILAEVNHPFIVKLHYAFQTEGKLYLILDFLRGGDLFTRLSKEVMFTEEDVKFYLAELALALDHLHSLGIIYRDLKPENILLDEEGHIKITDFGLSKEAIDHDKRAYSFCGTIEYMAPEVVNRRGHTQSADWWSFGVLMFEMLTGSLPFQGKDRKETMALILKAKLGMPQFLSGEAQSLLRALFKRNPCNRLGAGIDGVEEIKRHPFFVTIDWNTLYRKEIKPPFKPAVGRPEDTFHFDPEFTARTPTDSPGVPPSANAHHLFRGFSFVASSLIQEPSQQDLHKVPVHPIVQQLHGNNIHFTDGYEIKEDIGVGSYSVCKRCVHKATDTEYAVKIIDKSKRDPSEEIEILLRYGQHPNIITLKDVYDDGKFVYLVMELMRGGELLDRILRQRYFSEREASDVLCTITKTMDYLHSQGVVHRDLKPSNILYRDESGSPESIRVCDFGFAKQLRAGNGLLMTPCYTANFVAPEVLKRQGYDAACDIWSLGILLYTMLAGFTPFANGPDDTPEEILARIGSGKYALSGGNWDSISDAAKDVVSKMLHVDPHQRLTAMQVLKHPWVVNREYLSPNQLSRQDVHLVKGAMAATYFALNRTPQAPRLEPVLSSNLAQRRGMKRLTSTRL
Chain of UniProt Q96D53 (whole entry, looked up): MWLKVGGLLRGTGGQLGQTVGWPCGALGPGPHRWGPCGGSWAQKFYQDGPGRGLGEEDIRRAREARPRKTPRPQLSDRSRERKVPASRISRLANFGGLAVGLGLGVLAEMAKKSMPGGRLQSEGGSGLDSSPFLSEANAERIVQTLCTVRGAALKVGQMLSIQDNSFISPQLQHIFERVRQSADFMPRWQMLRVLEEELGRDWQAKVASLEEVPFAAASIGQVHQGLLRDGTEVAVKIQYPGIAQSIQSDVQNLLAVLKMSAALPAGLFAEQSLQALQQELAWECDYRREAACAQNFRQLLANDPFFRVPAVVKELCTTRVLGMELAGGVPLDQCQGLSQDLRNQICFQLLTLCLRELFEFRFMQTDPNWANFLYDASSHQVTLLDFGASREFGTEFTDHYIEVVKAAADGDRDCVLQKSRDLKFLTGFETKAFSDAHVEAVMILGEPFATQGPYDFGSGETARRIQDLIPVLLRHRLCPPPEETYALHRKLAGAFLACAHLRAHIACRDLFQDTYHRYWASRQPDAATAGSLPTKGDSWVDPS
Chain of UniProt Q16620 (whole entry, looked up): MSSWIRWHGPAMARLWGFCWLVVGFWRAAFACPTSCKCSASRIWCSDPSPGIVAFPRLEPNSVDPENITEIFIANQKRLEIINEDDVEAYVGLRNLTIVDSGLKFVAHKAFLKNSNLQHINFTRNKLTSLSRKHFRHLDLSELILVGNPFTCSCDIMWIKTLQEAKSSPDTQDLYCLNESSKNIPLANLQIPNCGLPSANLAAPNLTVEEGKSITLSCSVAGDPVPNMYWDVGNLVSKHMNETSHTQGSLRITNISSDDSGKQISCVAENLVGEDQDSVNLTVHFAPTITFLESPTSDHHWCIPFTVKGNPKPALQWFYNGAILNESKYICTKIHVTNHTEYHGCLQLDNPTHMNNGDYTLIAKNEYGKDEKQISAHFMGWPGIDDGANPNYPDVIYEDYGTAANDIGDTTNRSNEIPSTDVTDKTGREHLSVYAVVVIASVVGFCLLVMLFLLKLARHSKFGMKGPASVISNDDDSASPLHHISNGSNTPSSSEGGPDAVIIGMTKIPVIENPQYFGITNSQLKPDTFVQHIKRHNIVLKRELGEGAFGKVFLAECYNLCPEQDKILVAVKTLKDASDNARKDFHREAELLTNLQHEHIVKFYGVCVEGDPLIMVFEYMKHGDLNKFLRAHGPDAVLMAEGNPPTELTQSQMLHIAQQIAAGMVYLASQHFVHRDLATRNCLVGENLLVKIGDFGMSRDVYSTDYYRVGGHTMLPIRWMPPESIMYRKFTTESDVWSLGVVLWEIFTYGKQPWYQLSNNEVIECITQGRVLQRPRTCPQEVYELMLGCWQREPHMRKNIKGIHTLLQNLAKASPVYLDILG
Chain of UniProt O95747 (whole entry, looked up): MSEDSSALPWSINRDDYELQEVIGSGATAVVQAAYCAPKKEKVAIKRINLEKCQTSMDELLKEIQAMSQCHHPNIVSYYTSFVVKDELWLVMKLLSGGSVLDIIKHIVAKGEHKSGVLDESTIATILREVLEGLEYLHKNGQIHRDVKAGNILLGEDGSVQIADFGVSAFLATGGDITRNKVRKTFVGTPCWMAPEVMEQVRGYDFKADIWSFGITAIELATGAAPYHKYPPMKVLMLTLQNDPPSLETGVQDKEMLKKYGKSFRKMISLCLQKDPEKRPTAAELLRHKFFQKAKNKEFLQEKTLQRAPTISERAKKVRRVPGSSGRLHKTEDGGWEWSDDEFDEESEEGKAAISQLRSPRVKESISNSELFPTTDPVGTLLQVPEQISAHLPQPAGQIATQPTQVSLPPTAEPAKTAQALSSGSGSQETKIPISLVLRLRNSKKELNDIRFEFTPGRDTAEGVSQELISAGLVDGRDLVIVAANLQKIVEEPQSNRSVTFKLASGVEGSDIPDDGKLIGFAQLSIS
Chain of UniProt O15264 (whole entry, looked up): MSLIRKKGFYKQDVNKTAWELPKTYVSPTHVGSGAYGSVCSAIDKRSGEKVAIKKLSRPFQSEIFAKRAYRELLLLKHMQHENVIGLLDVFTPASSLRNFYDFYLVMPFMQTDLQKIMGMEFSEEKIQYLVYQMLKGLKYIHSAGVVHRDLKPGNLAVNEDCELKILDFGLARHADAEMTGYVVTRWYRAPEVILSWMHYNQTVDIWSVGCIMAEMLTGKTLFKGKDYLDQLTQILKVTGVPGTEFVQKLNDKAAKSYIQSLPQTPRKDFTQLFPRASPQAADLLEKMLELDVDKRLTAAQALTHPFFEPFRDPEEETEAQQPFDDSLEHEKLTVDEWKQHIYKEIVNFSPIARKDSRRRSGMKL
Chain of UniProt Q96SB4 (whole entry, looked up): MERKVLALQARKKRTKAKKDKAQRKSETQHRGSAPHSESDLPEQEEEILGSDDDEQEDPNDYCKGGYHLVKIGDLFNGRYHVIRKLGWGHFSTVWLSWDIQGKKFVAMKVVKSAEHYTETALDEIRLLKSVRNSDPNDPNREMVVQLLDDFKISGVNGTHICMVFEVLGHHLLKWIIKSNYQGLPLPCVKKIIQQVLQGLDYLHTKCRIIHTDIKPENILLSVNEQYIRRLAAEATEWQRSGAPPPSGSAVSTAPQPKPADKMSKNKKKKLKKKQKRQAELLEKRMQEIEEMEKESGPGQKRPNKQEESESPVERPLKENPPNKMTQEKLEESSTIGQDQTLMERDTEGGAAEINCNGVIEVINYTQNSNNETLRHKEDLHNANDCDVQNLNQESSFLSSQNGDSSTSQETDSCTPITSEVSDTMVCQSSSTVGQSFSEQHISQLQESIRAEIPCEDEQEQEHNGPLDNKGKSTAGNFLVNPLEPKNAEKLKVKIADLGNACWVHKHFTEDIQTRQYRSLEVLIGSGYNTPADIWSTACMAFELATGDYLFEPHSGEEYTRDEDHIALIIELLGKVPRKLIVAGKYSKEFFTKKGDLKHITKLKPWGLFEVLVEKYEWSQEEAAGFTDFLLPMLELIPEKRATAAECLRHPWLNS

Block 1
Target: Muscarinic acetylcholine receptor M4 (CHRM4, Homo sapiens, UniProt P08173)
Chain of UniProt P08173 (whole entry, looked up): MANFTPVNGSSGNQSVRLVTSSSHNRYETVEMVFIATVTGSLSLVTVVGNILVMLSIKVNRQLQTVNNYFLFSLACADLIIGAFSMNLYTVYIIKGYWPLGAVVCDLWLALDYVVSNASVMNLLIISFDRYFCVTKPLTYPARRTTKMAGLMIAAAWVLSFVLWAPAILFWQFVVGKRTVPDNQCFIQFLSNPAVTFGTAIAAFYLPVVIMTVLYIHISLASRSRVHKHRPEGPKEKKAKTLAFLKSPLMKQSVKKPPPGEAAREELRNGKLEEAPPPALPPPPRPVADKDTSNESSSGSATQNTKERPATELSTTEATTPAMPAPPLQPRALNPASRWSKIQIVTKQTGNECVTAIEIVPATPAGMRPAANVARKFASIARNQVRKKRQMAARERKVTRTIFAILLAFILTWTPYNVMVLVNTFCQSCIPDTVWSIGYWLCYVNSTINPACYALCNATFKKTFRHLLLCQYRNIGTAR
Effect on: ligand displacement
Tested at: 10 µM
For `Cc1ccc(-c2cnc([C@@]3(O)CC[C@H](C(=O)O)C(C)(C)C3)s2)cc1Nc1cccc(C(F)(F)F)n1`, the inhibition was 20%.
`CN1CCN(c2ccnc(NCCc3ccccc3)n2)CC1` has an inhibition of 25.9%.
`C[C@@H]1CN(c2cc(-c3n[nH]c4ccc(OC5(C)CC5)cc34)ncn2)C[C@H](C)O1` gave an inhibition of -4.79%.
For `CCc1ccccc1C(=O)Nc1n[nH]c2c(C)c(F)c(C3C(C#N)=C(C)N(C)C(C)=C3C#N)cc12`, the inhibition was 8.27%.
With `NS(=O)(=O)c1cc(NC(=O)Cc2ccccc2)ccc1Oc1cccc(Cl)c1` the inhibition was 10.2%.
For `CC1CCN(c2ccnc(NCc3cn(C)cn3)n2)CC1`, the inhibition was 20.6%.
`O=C1NC(c2ccccn2)Sc2ccccc21` (centres unmarked) has an inhibition of -4.7%.
With `COc1cccc(NC(=O)c2nc3scc(CN(C)Cc4ccccc4)c3c(=O)[nH]2)c1` the inhibition was -10.1%.
The inhibition of `Cc1noc([C@H]2C[C@@H](c3ccc(C(F)(F)F)cc3)CN(C(=O)N3CCS(=O)(=O)C3)C2)n1` is reported as -0.58%.
For `CC[C@H](CC(=O)O)n1c(=O)c2ncccc2n(Cc2cn(C)c3cc(C)cc(C)c23)c1=O`, the inhibition was 9.09%.
With `CCC(=NO)C(C)=Cc1ccc(F)c(C)c1` the inhibition was 15.4%.
With `Cc1ncc(-c2cc(Cl)ccc2F)cc1-n1c(=O)n(CC(N)=O)c2ccccc21` the inhibition was 3.09%.
The inhibition of `CN(C)CC#Cc1ccc(OCCCc2sc(N3CCc4cccc(C(=O)Nc5nc6ccccc6s5)c4C3)nc2C(=O)O)c(F)c1` is reported as -3.11%.
`Cn1cc(Cl)c2c(Oc3c(F)cc(Nc4cc(Cl)nc(N)n4)cc3F)ccnc21` gave an inhibition of -3.76%.
The inhibition of `C[C@@H](c1cccc(C#N)c1)n1cc(Cl)cc(C(N)=O)c1=N` is reported as -6.48%.
`CO[C@H]1CC[C@H](CNc2ccc(S(=O)(=O)NC(=O)c3ccc(N4CCN(CC5=C(c6ccc(Cl)cc6)CC(C)(C)CC5)CC4)cc3Oc3cnc4[nH]ccc4c3)cc2[N+](=O)[O-])CC1` has an inhibition of -0.31%.
`CC1=C(C#N)C(c2ccc3[nH]nc(C)c3c2)C(C#N)=C(C)N1` gave an inhibition of 5.33%.
With `Nc1cnc(N2CCc3cc(S(=O)(=O)Nc4c(F)cc(Cl)cc4F)cc(N4CCCC4=O)c32)nc1` the inhibition was 9.99%.

Block 2
SMILES: C=CC(=O)N1CCC[C@@H](n2nc(-c3ccc(Oc4ccccc4)cc3)c3c(N)ncnc32)C1
Mode: inhibitor
Tested at: 1 µM
For COQ8B (Homo sapiens, UniProt Q96D53); enzyme activity: inhibition read 9%.
It gave 36% for inhibition (OXSR1 (Homo sapiens, UniProt O95747); enzyme activity).
MAPK13 (Homo sapiens, UniProt O15264); enzyme activity — inhibition: 6%.
The inhibition was 2% (SRPK1 (Homo sapiens, UniProt Q96SB4); enzyme activity).
Ribosomal protein S6 kinase alpha-2, kinase domain 2 (RPS6KA2, Homo sapiens, UniProt Q15349) — inhibition: 13%.
For NTRK2 (Homo sapiens, UniProt Q16620); enzyme activity: inhibition read 36%.

Block 3
Target: Tyrosine-protein kinase ZAP-70 (ZAP70, Homo sapiens, UniProt P43403)
Effect on: enzyme activity
Mode: inhibitor
Tested at: 0.5 µM
Baseline: control
Target sequence (P43403 1-619): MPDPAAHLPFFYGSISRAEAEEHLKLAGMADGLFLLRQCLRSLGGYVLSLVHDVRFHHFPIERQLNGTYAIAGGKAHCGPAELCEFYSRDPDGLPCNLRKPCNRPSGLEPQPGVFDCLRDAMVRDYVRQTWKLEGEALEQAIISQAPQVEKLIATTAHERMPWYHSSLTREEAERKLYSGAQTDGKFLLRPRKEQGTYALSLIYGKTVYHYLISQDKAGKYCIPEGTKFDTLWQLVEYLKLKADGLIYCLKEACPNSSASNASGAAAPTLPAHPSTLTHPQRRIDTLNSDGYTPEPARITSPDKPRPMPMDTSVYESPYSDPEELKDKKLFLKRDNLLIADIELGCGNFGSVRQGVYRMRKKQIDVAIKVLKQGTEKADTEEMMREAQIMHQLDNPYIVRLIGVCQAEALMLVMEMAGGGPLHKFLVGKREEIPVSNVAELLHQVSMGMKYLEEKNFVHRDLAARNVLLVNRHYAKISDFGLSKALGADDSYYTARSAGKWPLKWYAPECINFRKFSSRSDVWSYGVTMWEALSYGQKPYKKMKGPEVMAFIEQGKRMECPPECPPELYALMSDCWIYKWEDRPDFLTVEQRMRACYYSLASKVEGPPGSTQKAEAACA
`C[C@@H](N)[C@H]1CC[C@H](C(=O)Nc2ccncc2)CC1` gave a remaining activity of 89%.
With `O=C(c1ccccc1)c1ccc(N2CCOCC2)cc1O` the remaining activity was 95.9%.
With `CC(C)N(CCC(=O)c1ccc2ccccc2c1)Cc1ccccc1` the remaining activity was 93.7%.
`Nc1nc(Nc2ccc(S(N)(=O)=O)cc2)nn1C(=S)Nc1c(F)cccc1F` has a remaining activity of 86.9%.
`COc1cc2c(Nc3ccc(Br)cc3F)ncnc2cc1OCC1CCN(C)CC1` has a remaining activity of 96.8%.
`CCN(CC)CCCCN1c2ccccc2Oc2ccc(Cl)cc21` has a remaining activity of 91.1%.
For `CNc1cc2c(Nc3cccc(Br)c3)ncnc2cn1`, the remaining activity was 99.1%.
`O=C1NC(=O)/C(=C/c2ccc3c(c2)OC(F)(F)O3)S1` has a remaining activity of 99.2%.

Block 4
Cell line: mouse MPNST tumor cells
Technique: high-content immunofluorescence imaging
Item: nuclear SOX9
Tested at: 10 µM
Time: 12 h
Setting: mean of 2 replicates
Baseline: DMSO control
Reading: higher = more nuclear SOX9
Under “nuclear SOX9 intensity”, `C#CCN[C@@H]1CCc2ccccc21` is recorded as 87.3 % of DMSO and 125 % of DMSO.
`O=c1onc2n1-c1cc(Br)ccc1OC2` — result for “nuclear SOX9 intensity”: 102 % of DMSO.
For `FC(F)(F)c1ccccc1-c1cc(C(F)(F)F)c2nc(C3=NOC4(CCCCC4)C3)[nH]c2c1`, “nuclear SOX9 intensity” read 116 % of DMSO.
For `C[C@]12CC[C@H]3C(=CCc4cc(O)ccc43)[C@@H]1CCC2=O`, “nuclear SOX9 intensity” read 107 % of DMSO.
`COc1ccc(CN2CCN(C(c3ccc(F)cc3)c3ccc(F)cc3)CC2)c(OC)c1OC`: “nuclear SOX9 intensity” 207 % of DMSO.
`O=C(Oc1cccc(F)c1OC(=O)c1cccc(O)c1)c1cccc(O)c1`: “nuclear SOX9 intensity” 109 % of DMSO.
Under “nuclear SOX9 intensity”, `NC(=O)c1ccc(N(C(N)=O)c2c(F)cccc2F)nc1-c1ccc(F)cc1F` is recorded as 101 % of DMSO.
`O=C1Cc2c([nH]c3ccc(Br)cc23)-c2ccccc2N1`: “nuclear SOX9 intensity” 90.3 % of DMSO.
`COc1ccc(CC(=O)NC(/N=C(\NC#N)Nc2cccc3ncccc23)C(C)(C)C)cc1OC` (centres unmarked): “nuclear SOX9 intensity” 99.9 % of DMSO.
`CCOc1ccccc1OCC1CNCCO1` (centres unmarked): “nuclear SOX9 intensity” 101 % of DMSO.
`CC(C)NCC(O)COc1ccc(CCOCC2CC2)cc1` (centres unmarked): “nuclear SOX9 intensity” 120 % of DMSO.
For `COc1cc(-c2ccc(=O)[nH]n2)ccc1OC(F)F`, “nuclear SOX9 intensity” read 110 % of DMSO and 106 % of DMSO.

Excerpt of the above (block 1):
With `NS(=O)(=O)c1cc(NC(=O)Cc2ccccc2)ccc1Oc1cccc(Cl)c1` the inhibition was 10.2%.
For `CC1CCN(c2ccnc(NCc3cn(C)cn3)n2)CC1`, the inhibition was 20.6%.
`O=C1NC(c2ccccn2)Sc2ccccc21` (centres unmarked) has an inhibition of -4.7%.
With `COc1cccc(NC(=O)c2nc3scc(CN(C)Cc4ccccc4)c3c(=O)[nH]2)c1` the inhibition was -10.1%.
The inhibition of `Cc1noc([C@H]2C[C@@H](c3ccc(C(F)(F)F)cc3)CN(C(=O)N3CCS(=O)(=O)C3)C2)n1` is reported as -0.58%.
For `CC[C@H](CC(=O)O)n1c(=O)c2ncccc2n(Cc2cn(C)c3cc(C)cc(C)c23)c1=O`, the inhibition was 9.09%.
